Measured values collected from several papers.
Protocols differ between the studies behind these lines. Numbers after ± are the reported error.
lecA: PA-I galactophilic lectin (lecA, Pseudomonas aeruginosa, UniProt Q05097)
lasR: Transcriptional activator protein LasR (lasR, Pseudomonas aeruginosa, UniProt P25084)
KLRK1 with MICA: NKG2-D type II integral membrane protein, with MICA (KLRK1, Homo sapiens, UniProt P26718)
pafA T79S: Alkaline phosphatase PafA (pafA, Elizabethkingia meningoseptica, UniProt Q9KJX5, T79S)

N#Cc1cccc(C(F)(F)F)c1  STD NMR signal (Amyloid-beta precursor protein, amyloid-beta 1-40 oligomers (APP, Homo sapiens, UniProt P05067); binding, STD NMR; highest STD): 0%
Nc1ncnc2c1ncn2C1CC(O)C(COP(=O)(O)OP(=O)(O)C(Cl)P(=O)(O)O)O1 (mixture of isomers)  delta effective pKa4 (DNA polymerase eta (POLH, Homo sapiens, UniProt Q9Y253); dNTP incorporation, single-turnover kinetics; W sequence, A·T pair; baseline: non-enzymatic LFER line): 0.2 pK units
CC[C@H](C)[C@H](NC(=O)[C@H](Cc1c[nH]cn1)NC(=O)[C@H](CCCCNC(=O)[C@@H](NC(=O)[C@H](CCCCN)NC(=O)[C@H](Cc1ccccc1)NC(=O)[C@H](CCCCNC(=O)[C@H](CC(C)C)NC(=O)[C@@H]1CCCN1C(=O)[C@H](CCCCN)NC(=O)CCS[C@@H]1O[C@H](CO)[C@H](O)[C@H](O)[C@H]1O)NC(=O)[C@H](CC(C)C)NC(=O)[C@@H]1CCCN1C(=O)[C@H](CCCCN)NC(=O)CCS[C@@H]1O[C@H](CO)[C@H](O)[C@H](O)[C@H]1O)[C@@H](C)CC)NC(=O)[C@@H](NC(=O)[C@H](CCCCN)NC(=O)[C@H](Cc1ccccc1)NC(=O)[C@H](CCCCNC(=O)[C@H](CC(C)C)NC(=O)[C@@H]1CCCN1C(=O)[C@H](CCCCN)NC(=O)CCS[C@@H]1O[C@H](CO)[C@H](O)[C@H](O)[C@H]1O)NC(=O)[C@H](CC(C)C)NC(=O)[C@@H]1CCCN1C(=O)[C@H](CCCCN)NC(=O)CCS[C@@H]1O[C@H](CO)[C@H](O)[C@H](O)[C@H]1O)[C@@H](C)CC)C(N)=O  binding enthalpy (ΔH) (lecA; ITC; concentration not given, pH 7.5, 25 °C): -9.1 ± 0.2 kcal/mol
CC[C@H](C)[C@H](NC(=O)[C@@H]1CCCN1C(=O)[C@H](Cc1c[nH]cn1)NC(=O)[C@@H](NC(=O)[C@H](Cc1ccc(O)cc1)NC(=O)[C@@H](NC(=O)[C@H](CCCNC(=N)N)NC(=O)CNC)C(C)C)[C@@H](C)CC)C(=O)O  Emax (Agtr1 (Rattus norvegicus, UniProt P25095); intracellular calcium, agonist; HEK293 cells; 2 min): 41 ± 2%
O=C(N[C@H]1CCOC1=O)c1cccc(-c2cn(-c3ccc4[nH]ccc4c3)nn2)c1  activation (lasR; reporter gene, agonist; Escherichia coli, DH5α pJN105L/pSC11; 100 µM; baseline: OdDHL at same concentration): 1%
Cc1cccc([C@H](NC(=O)c2cnccc2-c2ccc(C(F)(F)F)cc2)C(=O)N(C)C)c1  maximum inhibition (NKG2-D type II integral membrane protein, with ULBP6 (KLRK1, Homo sapiens, UniProt P26718); ligand binding, inhibitor, TR-FRET; HEK293 expressing NKG2D and DAP10; added: ULBP6-AF647; baseline: positive control): 98%
O=P(O)(O)Oc1ccccc1  relative catalytic efficiency (Alkaline phosphatase PafA (pafA, Elizabethkingia meningoseptica, UniProt Q9KJX5, R164A); Chryseobacterium meningosepticum; pH 8.0; baseline: wild type over mutant kcat/KM): 83
CC(=O)NC(Cc1ccc(Br)c(Cl)c1)C(=O)N[C@@H](C)C(=O)N1CCC[C@H]1C(=O)N1CCC[C@H]1C(=O)N[C@@H](CCC(=O)O)C(=O)N[C@@H](Cc1c[nH]cn1)C(=O)N[C@@H](CO)C(=O)N[C@H](C(=O)N[C@@H](C)C(N)=O)[C@@H](C)OP(=O)(O)O (stereo partly shown)  inhibition (MAP4K1 (Homo sapiens, UniProt Q92918); enzyme activity, inhibitor; 10 µM): 0.82%
CN(C)C(=O)[C@@H](NC(=O)c1cc(-c2ccnn2C)ccc1-c1ccc(C(F)(F)F)cc1)c1cccc(C(F)(F)F)c1  maximum inhibition (KLRK1 with MICA; ligand binding, inhibitor, TR-FRET; HEK293 expressing NKG2D and DAP10; added: MICA-Alexa647; baseline: positive control): 101%
NCC1OC(OC(CO)C2CC(O)C(n3ccc(=O)[nH]c3=O)O2)C(O)C1O (stereo not shown)  binding entropy (mraY (Aquifex aeolicus, UniProt O66465); isothermal titration calorimetry; concentration not given, wild type, added: Mg2+): -19.9 ± 4.8 cal/mol/K
O=[N+]([O-])c1ccc(OP(=O)(O)O)cc1  kcat (pafA T79S; substrate; pH 8.0): 1.8 s^–1
O=C(CC12CC3CC(CC(C3)C1)C2)NCCOCC(=O)NC1CCN(S(=O)(=O)c2cc(C(=O)Nc3cc(F)c(F)c(F)c3)ccc2F)CC1  ΔTm (Capsid protein (C, Hepatitis B virus genotype D subtype ayw, UniProt P03146); cellular thermal shift; Hepatitis B virus, HepAD38 cell lysate; 6 µM; baseline: DMSO): 5.4 °C
CC(C)C[C@H](NC(=O)CN)C(=O)NCC(=O)N[C@@H](CCCCN)C(=O)N[C@@H](CC(C)C)C(=O)N[C@@H](CC(C)C)C(=O)N[C@@H](Cc1c[nH]cn1)C(=O)N[C@@H](C)C(=O)N[C@@H](C)C(=O)N[C@@H](CCCCN)C(=O)N[C@@H](CCCCN)C(=O)N[C@@H](CC(C)C)C(=O)NCC(=O)N[C@@H](CCCCN)C(=O)N[C@@H](C)C(=O)N[C@@H](Cc1c[nH]c2ccccc12)C(=O)N[C@@H](CC(C)C)C(=O)NCC(=O)N[C@@H](CCC(=O)O)C(=O)N[C@@H](CC(C)C)C(=O)N[C@@H](CC(C)C)C(=O)N[C@@H](C)C(=O)N[C@@H](C)C(=O)O  binding free energy (POPC membrane; membrane binding, stopped-flow FRET; mole fraction units, room temperature): -6.4 kcal/mol
CC(C)C[C@H](NC(=O)[C@@H](N)Cc1ccccc1)C(=O)O  monomer bound (Amyloid-beta precursor protein, Aβ40 (APP, Homo sapiens, UniProt P05067); binding, ion mobility MS, refers to: Aβ monomer; at least 1 ligands): 34 ± 12%
CC(C)P(=S)(NP(=[Se])(C(C)C)C(C)C)C(C)C  ΔG of binding (Alpha-amylase (Bacillus subtilis, UniProt P00691); fluorescence quenching; concentration not given, pH 6.8, 304 K): -4.23 kcal/mol
C[C@@]1(O)CC[C@H]2[C@H](CC[C@@H]3[C@@H]2CC[C@]2(C)[C@@H](C(=O)Cn4cccn4)CC[C@@H]32)C1  PKA activation (Membrane progestin receptor delta (Paqr6, Mus musculus, UniProt Q6TCG5); pPKA/PKA immunoblot; MDA-MB-231 expressing Paqr6-GFP; 100 nM, 20 min; baseline: control): 97.9 ± 2.02%
CN(C)C(=O)[C@@H](NC(=O)c1ccccc1-c1ccc(C(F)(F)F)cc1)c1cccc(C(F)(F)F)c1  Emax (KLRK1 with MICA): 101%
CCOc1cncc(-c2ccc(NC(=O)C3(c4ccnc(NS(=O)(=O)C5CC5)n4)CCOCC3)nc2)n1  selectivity ratio (Ctps1 (Mus musculus, UniProt P70698); enzyme activity; mouse; baseline: CTPS2 over target IC50): 140
O=C(Cn1cc(CC2CCCCC2)nn1)N[C@H]1CCOC1=O  activation (lasR; reporter gene, agonist; Escherichia coli, DH5α pJN105L/pSC11; 100 µM; baseline: OdDHL at same concentration): 47%
CC[C@H](C)[C@H](NC(=O)[C@H](CO)NC(=O)[C@H](Cc1ccc(O)cc1)NC(=O)[C@H](CCCCN)NC(=O)[C@@H]1CCCN1C(=O)[C@H](CCSC)NC(=O)[C@H](Cc1ccccc1)NC(=O)[C@H](CCSC)NC(=O)[C@@H](NC(=O)[C@@H]1CCCN1C(=O)[C@H](Cc1ccccc1)NC(=O)[C@H](CC(=O)O)NC(=O)CN)C(C)C)C(=O)O  highest concentration without inhibition (OGT (Homo sapiens, UniProt O15294); enzyme activity, fluorescence activity): > 200 µM
CCN(Cc1ccccc1)C(=O)CCc1nc(CN2CCN(C(=O)Cc3ccc(OC)c(OC)c3)CC2)no1  inactivation V1/2 (Sodium channel protein type 11 subunit alpha (Scn11a, Rattus norvegicus, UniProt O88457); sodium current, whole-cell patch clamp; rat DRG neurons; 1 µM): -97.6 ± 12.8 mV
O=C(O)c1ccccc1-c1c2ccc(=O)c([As]3SCCS3)c-2oc2c([As]3SCCS3)c(O)ccc12  time to maximal inhibition (Ptpn11 (Mus musculus, UniProt P35235); 1 µM, catalytic domain, added: pNPP): ~30 min
CC[C@H](C)[C@@H]1NC(=O)[C@H](Cc2ccc(O)cc2)NC(=O)[C@@H](N)CSSC[C@@H](C(=O)N2CCC[C@H]2C(=O)N2CCC[C@H]2C(=O)NCC(N)=O)NC(=O)[C@H](CC(N)=O)NC(=O)[C@H](CCC(N)=O)NC1=O  Emax (Oxytocin receptor (Macaca mulatta, UniProt P56494); Ca2+ mobilisation, agonist; CHO cells): 3390 RFU
Cc1cc(O)cc(C)c1CC(N)C(=O)NC1CCNc2c1cc(Cc1ccccc1)cc2C(C)(C)C (stereo not shown)  efficacy (Oprm1 (Rattus norvegicus, UniProt P33535); agonist; C6 cells expressing MOR; baseline: DAMGO at 10 µM): 83%
CN(C)C(=O)[C@@H](NC(=O)c1cnccc1-c1ccc(C(F)(F)F)cc1)c1cc(Cl)cc(C(F)(F)F)c1  maximum inhibition (KLRK1 with MICA; ligand binding, inhibitor, TR-FRET; HEK293 expressing NKG2D and DAP10; added: MICA-Alexa647; baseline: positive control): 101 ± 30.3%
COP(=O)(O)Oc1ccc([N+](=O)[O-])cc1  relative catalytic efficiency (pafA T79S; Chryseobacterium meningosepticum; pH 8.0; baseline: wild type over mutant kcat/KM): 26
CCCCC/C=C\C/C=C\C/C=C\C/C=C\CCCC(=O)NC(CO)C(=O)O (stereo in doubt)  washout time (Voltage-gated potassium channel, KQT; KCNQ2(Kv7.2)/KCNQ3(Kv7.3) (KCNQ3/KCNQ2, Homo sapiens, UniProt O43525+O43526); two-electrode voltage clamp; Xenopus oocytes; 10 µM): ~10 min
CC[C@H](C)[C@H](NC(=O)[C@H](Cc1c[nH]cn1)NC(=O)[C@H](CCCCNC(=O)[C@@H](NC(=O)[C@H](CCCCN)NC(=O)CSC[C@H](NC(=O)[C@H](Cc1ccccc1)NC(=O)[C@H](CCCCNC(=O)[C@H](CC(C)C)NC(=O)[C@@H]1CCCN1C(=O)[C@H](CCCCN)NC(=O)C[C@@H]1O[C@@H](C)[C@@H](O)[C@@H](O)[C@@H]1O)NC(=O)[C@H](CC(C)C)NC(=O)[C@@H]1CCCN1C(=O)[C@H](CCCCN)NC(=O)c1ccc(O[C@@H]2O[C@H](CO)[C@H](O)[C@H](O)[C@H]2O)cc1)C(N)=O)[C@@H](C)CC)NC(=O)[C@@H](NC(=O)[C@H](CCCCN)NC(=O)CSC[C@H](NC(=O)[C@H](Cc1ccccc1)NC(=O)[C@H](CCCCNC(=O)[C@H](CC(C)C)NC(=O)[C@@H]1CCCN1C(=O)[C@H](CCCCN)NC(=O)C[C@@H]1O[C@@H](C)[C@@H](O)[C@@H](O)[C@@H]1O)NC(=O)[C@H](CC(C)C)NC(=O)[C@@H]1CCCN1C(=O)[C@H](CCCCN)NC(=O)c1ccc(O[C@@H]2O[C@H](CO)[C@H](O)[C@H](O)[C@H]2O)cc1)C(N)=O)[C@@H](C)CC)C(N)=O  relative potency per galactoside (lecA; binding, isothermal titration calorimetry; divided by galactoside copies; baseline: monovalent galactoside KD over ligand KD): 20
CNc1ccc2c(n1)sc1c(N3CCNCC3)nc(NC)nc12  k3/KI (Eubacterium eligens beta-glucuronidase; slow-binding inhibitor; added: PNPG): 453 ± 9 M⁻¹ s⁻¹
C[n+]1ccc(C(=O)NC2CCC3(O)C4Cc5ccc(O)c6c5C3(CC[N+]4(C)CC3CC3)C2O6)cc1 (stereo not shown)  Emax (Oprd1 (Mus musculus, UniProt P32300); G protein activation, agonist; baseline: 3 µM SNC80): 6.76 ± 2.02%
Cc1cc(N)nc(CC2CNCC2OCCNCC(F)(F)C2CCCCN2)c1 (stereo not shown)  selectivity ratio (Nos2 (Mus musculus, UniProt P29477); hemoglobin capture; baseline: Ki iNOS over Ki nNOS): 170

Excerpt of the above:
CNc1ccc2c(n1)sc1c(N3CCNCC3)nc(NC)nc12  k3/KI (Eubacterium eligens beta-glucuronidase; slow-binding inhibitor; added: PNPG): 453 ± 9 M⁻¹ s⁻¹
C[n+]1ccc(C(=O)NC2CCC3(O)C4Cc5ccc(O)c6c5C3(CC[N+]4(C)CC3CC3)C2O6)cc1 (stereo not shown)  Emax (Oprd1 (Mus musculus, UniProt P32300); G protein activation, agonist; baseline: 3 µM SNC80): 6.76 ± 2.02%
